# Measured values gathered from unrelated publications.
# Numbered parts are unrelated; each lists some results of a single study. Positions count from the first letter of the parent shown.
# Sequence of UniProt Q96B02 (whole entry, looked up): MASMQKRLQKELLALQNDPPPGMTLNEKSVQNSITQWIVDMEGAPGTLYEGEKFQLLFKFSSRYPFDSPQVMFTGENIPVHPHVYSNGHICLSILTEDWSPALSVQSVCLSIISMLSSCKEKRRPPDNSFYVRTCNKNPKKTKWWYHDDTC
# Sequence of UniProt P49459 (whole entry, looked up): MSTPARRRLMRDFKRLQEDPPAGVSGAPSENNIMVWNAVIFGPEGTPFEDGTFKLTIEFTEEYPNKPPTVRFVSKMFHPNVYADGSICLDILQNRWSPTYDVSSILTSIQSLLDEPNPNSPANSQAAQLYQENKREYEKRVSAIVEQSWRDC
# Sequence of UniProt P61077 (whole entry, looked up): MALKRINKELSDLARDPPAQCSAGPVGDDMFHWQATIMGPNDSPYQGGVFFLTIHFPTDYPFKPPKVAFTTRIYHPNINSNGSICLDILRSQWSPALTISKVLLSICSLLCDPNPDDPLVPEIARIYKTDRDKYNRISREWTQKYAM

# Set 1
# Target: RNA binding protein fox-1 homolog 2, RRM domain, GST-SBP tag (RBFOX2, Homo sapiens, UniProt O43251-10, residues 100-194)
# Technique: RNA Bind-n-Seq
# Form: RNA
# Medium: in vitro
# Tested at: 365 nM
# Notes: natural RNA segment, single round, ends assumed
# Reference: no-protein control
# Reading: higher = stronger binding
# All sequences stand within: GGGAGUUCUACAGUCCGACGAUC … UGGAAUUCUCGGGUGCCAA
# Residues (chain): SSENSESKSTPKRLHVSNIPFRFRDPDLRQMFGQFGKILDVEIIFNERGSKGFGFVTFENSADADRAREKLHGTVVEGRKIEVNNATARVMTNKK
Strand,RBNS enrichment (R)
AGGCCCCCCUCUGCCCUGAUCCCAUGAAGUGACCUUGGGCACUCCCUUUCCCUCCCUGGGCCUCAGUUUCCCCAUCUCCCAAAUGGGAGGAGGAGCCGGAUUGGGUUAUU,0.487
AGGAGAACCUGCAGCAUGGUGGGAAAUGGGGACACUACCUCCCAGGAUGACUGUGUGAGCAAAGAGCGCAGCUCCUCCAGGUGACCACAUGUGGCCGCUGUCUGUGCCAG,5.67
GGAUCUCGUUGGGGAAUUGGAUGAAGAAAAGCAGAGCGCCUCUGGUAGGUGACUCUGCAGCCUGCCAGCGCCCGCCCUCUUUCUACACAGCAGAGUGUGCAUGGCAAGGA,1.88
GCCUUCUUUCCCUUGGGGUCUCUGGAAGAUCCUAGCAGACUUUGCCUGUGGGCCUGCUCAGCAUGACUUCCAGGACCCCACUGUUCUGGACUGACAUCCCAGGUGUCACA,4.7
GUGCCACUGCUGUUGUCUGCUCAUUGUCCUGCCUGUUGCUCAUUAUAGCCCCUGUCCUUCAUGUGUCUGGCCAUGUAGACUCUCAGGCAUCCUGUCCAUUUUUAACCUGU,0.897
GUUUCAAUUUAGGCCAAGUACUAGAACAAGGAAUCAUCAAAGAUAUAUGGGUAGAUUUUAUUAUGUACACAAAGACAAAUGGACCCUGAGAAAUGUAUGCGUUUGUAAAC,1.3
UAGAUUAAGGUUGAACCUUAGACACAAUGUGUGUUGUUAGUUGUAGAGCAGCCAUAUGUGCCAUGGGUGCUUUGUGUUAGUUAUCUGCUCUAGUCUUACAGCUGAAAAUU,0.431
CAGCUCUGUCUGCCACACACGUGCAAGCAAUUGUGAUUUAGAGUCACCUCCUAUCCCAUUUGAUCUCACGUAAGCUCCAUUCUCCCACACAACUCUGGGCUCUGUUCAGC,0.317

# Set 2
# Target: Prothrombin, mature alpha-thrombin (F2, Homo sapiens, UniProt P00734)
# Technique: aptamer microarray, sandwich
# Form: DNA with 2'F-ANA
# Medium: in vitro
# Tested at: 200 nM
# Notes: whole 15-mer aptamer, many near background
# Together with: Cy3 exosite-II aptamer, 400 nM
# Reading: higher = stronger binding
# Strand: GGTTGGTGTGGTTGG
Modification,mean fluorescence intensity [a.u.]
2'F-ANA at 1 2 5 8 9 10 11 13 15,61.3
2'F-ANA at 5 6 7 8 9 10 11 12 13 15,50.7
2'F-ANA at 1 4 5 6 9 13,47
2'F-ANA at 3 7 8 10 11 14 15,464
2'F-ANA at 1 2 5 7 8 9 11 12 13 14 15,88.5
2'F-ANA at 2 3 6,877
2'F-ANA at 2 3 4 10 12 14,189
2'F-ANA at 3 5 6 7 13,94.8

# Set 3
# Molecule: DDENSDNSNECVVCLSDLRDTLILPCRHLCLCTSCADTLRYQANNCPICRLPFRALLQIR (MGRN1 RING domain (UniProt O60291))
# Technique: yeast two-hybrid
# Medium: yeast
# Notes: mostly zero background
# Reference: not given
# Reading: higher = stronger interaction
target,lacZ reporter activity
UBE2D3 UBC core domain (UniProt P61077),0
UBE2A UBC core domain (UniProt P49459),0
UBE2W UBC core domain (UniProt Q96B02),0

# Set 4
# Target: HLA class I histocompatibility antigen, A alpha chain, allele A*80:01 (Homo sapiens, UniProt P04439)
# Effect on: peptide-MHC binding
# Form: peptide
# Tested at: concentration not given
Molecule,binding
CLSPVVAGL,inactive
MFWKLPPWL,inactive
DEEAINLFH,inactive
SSARYDVAL,inactive
GPSPSHKSV,inactive
LVAPHMAMM,inactive
EVIPYTPAM,inactive

# Set 5
# Target: CCNE1, cyclin fold, Cln2 fusion (human)
# Technique: yeast growth competition, sequencing
# Medium: yeast
# Notes: strong parent motif
# Reference: not given
# Reading: higher = stronger binding
# Parent: viral docking peptide; TSVRRALFTGGSD; partner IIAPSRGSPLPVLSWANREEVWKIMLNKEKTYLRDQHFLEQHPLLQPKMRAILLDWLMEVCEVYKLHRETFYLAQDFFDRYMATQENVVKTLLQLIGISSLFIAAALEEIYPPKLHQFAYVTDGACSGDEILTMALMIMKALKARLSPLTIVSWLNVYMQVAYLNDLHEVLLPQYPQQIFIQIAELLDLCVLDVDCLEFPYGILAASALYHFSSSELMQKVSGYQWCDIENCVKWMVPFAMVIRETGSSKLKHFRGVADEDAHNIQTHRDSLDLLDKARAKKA
Variant,normalised enrichment score
L7C,0.181
R4T,1.7
V3A,4.1
L7A,0.107
G11R,4.33
S2W,3.07
S12H,5.45
F8C,-0.233
G10A,5.76
L7N,0.0927
S12G,5.48
R4A,2.75
F8D,0.0105
S2D,4.01
G11L,5.17
S2V,2.97
S12V,5.55
L7T,0.0921
F8I,0.0455
D13A,4.83
A6E,3.8
S12I,5.45
A6F,1.51
A6L,2.28
V3K,0.456

# Some of these lines once more (set 4):
Molecule,binding
GPSPSHKSV,inactive
DEEAINLFH,inactive
CLSPVVAGL,inactive
LVAPHMAMM,inactive
MFWKLPPWL,inactive
EVIPYTPAM,inactive
